Measurements pooled from the literature.
Compare with care: the assays were run in different laboratories. Numbers after ± are the reported error.
Target: Pancreatic triacylglycerol lipase (PNLIP, Sus scrofa, UniProt P00591)
Observed: enzyme activity
Residues used in one study (P00591 1-450): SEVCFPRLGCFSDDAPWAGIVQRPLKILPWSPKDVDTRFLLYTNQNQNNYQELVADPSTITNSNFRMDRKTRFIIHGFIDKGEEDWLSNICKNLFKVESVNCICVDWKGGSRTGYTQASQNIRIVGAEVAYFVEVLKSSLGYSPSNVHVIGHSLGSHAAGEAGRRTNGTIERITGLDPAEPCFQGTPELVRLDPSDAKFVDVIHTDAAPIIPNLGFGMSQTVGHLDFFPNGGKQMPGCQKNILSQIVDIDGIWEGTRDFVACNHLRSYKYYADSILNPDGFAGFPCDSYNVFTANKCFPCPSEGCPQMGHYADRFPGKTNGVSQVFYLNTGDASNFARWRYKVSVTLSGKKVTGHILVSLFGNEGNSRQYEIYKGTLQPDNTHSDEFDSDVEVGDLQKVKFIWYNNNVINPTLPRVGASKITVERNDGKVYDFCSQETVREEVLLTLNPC

C=C1CCC(=O)C(C)CCC2C1CC2(C)C(=O)C=CC(C)(C)O (stereo not shown)  IC50 (inhibitor, absorbance): 16.9 µM
Oc1cc(O)c2c(c1)O[C@H](c1cc(O)c(O)c(O)c1)[C@H](O)C2  IC50 (inhibitor): 51.7 µM
C=C1CCC(O)C(C)=CCC2C1CC2(C)C(=O)C=CC(C)(C)O (stereo not shown)  IC50 (inhibitor, absorbance): 16.1 µM
O=C(O[C@H]1Cc2c(O)cc(O)cc2O[C@@H]1c1ccc(O)cc1)c1cc(O)c(O)c(O)c1  IC50 (inhibitor): 19.8 µM
COc1cc(/C=C/C(=O)/C=C/c2ccc(O)c(OC)c2)ccc1O  IC50 (inhibitor, absorbance): 235 µM
COc1cc(O)c2c(c1)C1=CC(O)C(O)CC1(C)OC2=O (stereo not shown)  IC50 (inhibitor, fluorescence; pH 8): 3.18 µM
COc1cc(CCC(=O)CC(=O)CCc2ccc(O)cc2)ccc1O  IC50 (inhibitor, absorbance): 81.5 µM
O=C(OC[C@@]1(O)C(=O)C=C[C@@H](OC(=O)c2ccccc2)[C@@H]1O)c1ccccc1  IC50 (inhibitor, absorbance): 2.78 µM
O=C(O[C@H]1Cc2c(O)cc(O)cc2O[C@@H]1c1ccc(O)c(O)c1)c1cc(O)c(O)c(O)c1  IC50 (inhibitor): 13.6 µM
O=C(O[C@@H]1Cc2c(O)cc(O)cc2O[C@@H]1c1cc(O)c(O)c(O)c1)c1cc(O)c(O)c(O)c1  IC50: 863 ± 107 µM
C=C1CC(O)CC(C)=CCC2C1CC2(C)O (stereo not shown)  IC50 (inhibitor, absorbance): > 500 µM
COc1cc(/C=C/C(=O)CC(=O)/C=C/c2ccc(O)cc2)ccc1O  IC50 (inhibitor, absorbance): 95.4 µM
O=C(O[C@H]1Cc2c(O)cc(O)cc2O[C@@H]1c1cc(O)c(O)c(O)c1)c1cc(O)c(O)c(O)c1  IC50 (inhibitor): 62.6 µM

Some of these lines once more:
C=C1CCC(O)C(C)=CCC2C1CC2(C)C(=O)C=CC(C)(C)O (stereo not shown)  IC50 (inhibitor, absorbance): 16.1 µM
COc1cc(/C=C/C(=O)/C=C/c2ccc(O)c(OC)c2)ccc1O  IC50 (inhibitor, absorbance): 235 µM
